Measurements gathered from unrelated publications.
A part holds a random share of what one study measured. Several values in a cell are separate wells, animals, samples, runs or records.

Study 1
Cell line: A-375
Tested at: 100 µM
Time: 36 h
SMILES | viability
O=C(c1ccc(F)cc1)C1CCN(CCn2c(=O)[nH]c3ccccc3c2=O)CC1 | 76.5%
Cc1cccn2c(=O)c(-c3nnn[nH]3)cnc12 | 99.9%
CCOC(=O)n1ccn(C)c1=S | 91.7%
CCCCOc1ccc(OCCCN2CCOCC2)cc1 | 52.8%
O=C(CCCl)NCc1ccccc1 | 107%
CC1(C)S[C@@H]2[C@H](NC(=O)[C@H](N)c3ccccc3)C(=O)N2[C@H]1C(=O)OCOC(=O)[C@@H]1N2C(=O)C[C@H]2S(=O)(=O)C1(C)C | 68.4%
COc1ccc([C@@H]2CC(=O)c3c(O)cc(O[C@@H]4O[C@H](CO[C@@H]5O[C@@H](C)[C@H](O)[C@@H](O)[C@H]5O)[C@@H](O)[C@H](O)[C@H]4O)cc3O2)cc1OC | 121%
CC(CN(C)C)CN1c2ccccc2Sc2ccccc21 (centres unmarked) | 2.2%
Cc1ccc(N(CC2=NCCN2)c2cccc(O)c2)cc1 | 18.3%
O=C(O)CCC(=O)c1ccc(-c2ccccc2)cc1 | 114%
CC1(C)S[C@@H]2[C@H](NC(=O)[C@H](N)c3ccccc3)C(=O)N2[C@H]1C(=O)O | 75.9% and 96.8%
COc1cc(CNC(=O)CCCC/C=C/C(C)C)ccc1O | 12.9%
C[C@]12CCC3=C4CCC(=O)C=C4CC[C@H]3[C@@H]1CC[C@@]2(O)CC#N | 106%
NC(=O)c1ccccc1O | 106%
Cc1ccc(Sc2ccccc2N2CCNCC2)c(C)c1 | 1.71% and -0.803%
COC(=O)C1=CO[C@@H](O)[C@@H]2C(CO)=CC[C@H]12 | 32.3%

Study 2
SMILES: O=C(NC(NC(=S)Nc1ccc(F)c([N+](=O)[O-])c1)C(Cl)(Cl)Cl)C(c1ccccc1)c1ccccc1 (centres unmarked)
Read-out: enzyme activity
Mode: inhibitor
Tested at: 0.5 µM
Baseline: control
target | remaining activity [%]
Casein kinase I isoform epsilon (CSNK1E, Homo sapiens, UniProt P49674) | 111
Tyrosine-protein kinase JAK1 (JAK1, Homo sapiens, UniProt P23458) | 106
Serine/threonine-protein kinase PAK 6 (PAK6, Homo sapiens, UniProt Q9NQU5) | 101
Vascular endothelial growth factor receptor 1 (FLT1, Homo sapiens, UniProt P17948) | 97.2
Protein kinase C zeta type (PRKCZ, Homo sapiens, UniProt Q05513) | 98
SRSF protein kinase 1 (SRPK1, Homo sapiens, UniProt Q96SB4) | 99.3
Ephrin type-A receptor 2 (EPHA2, Homo sapiens, UniProt P29317) | 103
Insulin-like growth factor 1 receptor (IGF1R, Homo sapiens, UniProt P08069) | 93.7
Dual specificity protein kinase CLK1 (CLK1, Homo sapiens, UniProt P49759) | 106
Serine/threonine-protein kinase PAK 1 (PAK1, Homo sapiens, UniProt Q13153) | 86
Ribosomal protein S6 kinase alpha-3 (RPS6KA3, Homo sapiens, UniProt P51812) | 96.2
Tyrosine-protein kinase receptor TYRO3 (TYRO3, Homo sapiens, UniProt Q06418) | 108
Casein kinase I isoform delta (CSNK1D, Homo sapiens, UniProt P48730) | 105
Protein kinase C theta type (PRKCQ, Homo sapiens, UniProt Q04759) | 107
Calcium/calmodulin-dependent protein kinase kinase 1 (CAMKK1, Homo sapiens, UniProt Q8N5S9) | 128
Serine/threonine-protein kinase Sgk2 (SGK2, Homo sapiens, UniProt Q9HBY8) | 119
Tyrosine-protein kinase Tec (TEC, Homo sapiens, UniProt P42680) | 201
Mitogen-activated protein kinase kinase kinase 20 (MAP3K20, Homo sapiens, UniProt Q9NYL2) | 98.6
Calcium/calmodulin-dependent protein kinase type 1 (CAMK1, Homo sapiens, UniProt Q14012) | 93.1
Cyclin-dependent kinase 2, with cyclin E (CDK2, Homo sapiens, UniProt P24941) | 89.2
Serine/threonine-protein kinase SIK2 (SIK2, Homo sapiens, UniProt Q9H0K1) | 112
Dual specificity protein kinase CLK2 (CLK2, Homo sapiens, UniProt P49760) | 93.5

Study 3
SMILES: C[C@@]1(Cc2ccc(C#N)cc2)C(=O)N(c2cc(Cl)cc(Cl)c2)c2ncc(C(=O)NC3(c4nc(C5CCC5)no4)CC3)n21
Tested at: 1 µM
target | test | remaining binding [%]
Ephrin type-A receptor 4 (EPHA4, Homo sapiens, UniProt P54764) | cell-free assay, competition with immobilised ligand | 100
Mitogen-activated protein kinase kinase kinase 20 (MAP3K20, Homo sapiens, UniProt Q9NYL2) | cell-free assay, competition with immobilised ligand | 100
Transient receptor potential cation channel subfamily M member 6 (TRPM6, Homo sapiens, UniProt Q9BX84) | cell-free assay, competition with immobilised ligand | 0
Tyrosine-protein kinase ABL1, phosphorylated (ABL1, Homo sapiens, UniProt P00519, H396P) | cell-free assay, competition with immobilised ligand | 96
Homeodomain-interacting protein kinase 4 (HIPK4, Homo sapiens, UniProt Q8NE63) | cell-free assay, competition with immobilised ligand | 100
Protein kinase C iota type (PRKCI, Homo sapiens, UniProt P41743) | cell-free assay, competition with immobilised ligand | 87
eIF-2-alpha kinase GCN2, C-terminal kinase domain (EIF2AK4, Homo sapiens, UniProt Q9P2K8, S808G) | cell-free assay, competition with immobilised ligand | 100
Mitogen-activated protein kinase 8 (MAPK8, Homo sapiens, UniProt P45983) | cell-free assay, competition with immobilised ligand | 100
Tyrosine-protein kinase Fgr (FGR, Homo sapiens, UniProt P09769) | cell-free assay, competition with immobilised ligand | 100
Serine/threonine-protein kinase MRCK gamma (CDC42BPG, Homo sapiens, UniProt Q6DT37) | competition binding | 100
Phosphatidylinositol 4,5-bisphosphate 3-kinase catalytic subunit alpha isoform (PIK3CA, Homo sapiens, UniProt P42336, M1043I) | cell-free assay, competition with immobilised ligand | 100
TGF-beta receptor type-1 (TGFBR1, Homo sapiens, UniProt P36897) | cell-free assay, competition with immobilised ligand | 100
Fibroblast growth factor receptor 3 (FGFR3, Homo sapiens, UniProt P22607) | cell-free assay, competition with immobilised ligand | 100
Muscle, skeletal receptor tyrosine-protein kinase (MUSK, Homo sapiens, UniProt O15146) | cell-free assay, competition with immobilised ligand | 100

Study 4
Target: Diamine acetyltransferase 1 (Homo sapiens, UniProt P21673)
Mode: inhibitor
Tested at: 10 µM
Baseline: control
Construct (P21673 1-171): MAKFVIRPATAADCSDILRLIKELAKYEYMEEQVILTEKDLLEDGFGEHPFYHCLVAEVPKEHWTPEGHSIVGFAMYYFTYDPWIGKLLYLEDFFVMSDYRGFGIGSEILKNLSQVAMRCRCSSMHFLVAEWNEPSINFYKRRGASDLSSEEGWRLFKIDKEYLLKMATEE
Compound | remaining activity [%]
COc1ccc2c(OC)c3ccoc3nc2c1OC | 88.4
O=C(O)/C=C/c1ccc(O)c(O)c1 | 94.6
C[n+]1cccc(C(=O)[O-])c1 | 76.1
O=c1cc(-c2ccc(O)c(O)c2)oc2c([C@@H]3O[C@H](CO)[C@@H](O)[C@H](O)[C@H]3O)c(O)cc(O)c12 | 91.9
O=C1CC(c2ccc(O)cc2)Oc2cc(O)cc(O)c21 (racemic) | 99.9
C[C@@H]1O[C@@H](O[C@H]2[C@H](O[C@H]3CC[C@@]4(C)[C@@H](CC[C@]5(C)[C@@H]4CC=C4[C@@H]6CC(C)(C)CC[C@]6(C(=O)O)CC[C@]45C)[C@]3(C)CO)OC[C@H](O)[C@@H]2O)[C@H](O)[C@H](O[C@@H]2O[C@H](CO)[C@@H](O[C@@H]3O[C@H](CO)[C@@H](O)[C@H](O)[C@H]3O)[C@H](O)[C@H]2O)[C@H]1O | 117
COc1cc2c(c(O)c1OC)C(=O)c1c(cc(C)c(O)c1OC)C2=O | 121
CCCCCCCC/C=C\CCCCCCCCCCCCCC(=O)O | 95.5
N[C@@H](Cc1cnc[nH]1)C(=O)O | 105
NCCS(=O)(=O)O | 89.6

Repeated from above (study 1):
SMILES | viability
COc1ccc([C@@H]2CC(=O)c3c(O)cc(O[C@@H]4O[C@H](CO[C@@H]5O[C@@H](C)[C@H](O)[C@@H](O)[C@H]5O)[C@@H](O)[C@H](O)[C@H]4O)cc3O2)cc1OC | 121%
CC1(C)S[C@@H]2[C@H](NC(=O)[C@H](N)c3ccccc3)C(=O)N2[C@H]1C(=O)OCOC(=O)[C@@H]1N2C(=O)C[C@H]2S(=O)(=O)C1(C)C | 68.4%
CCOC(=O)n1ccn(C)c1=S | 91.7%
CCCCOc1ccc(OCCCN2CCOCC2)cc1 | 52.8%
Cc1cccn2c(=O)c(-c3nnn[nH]3)cnc12 | 99.9%
C[C@]12CCC3=C4CCC(=O)C=C4CC[C@H]3[C@@H]1CC[C@@]2(O)CC#N | 106%
CC(CN(C)C)CN1c2ccccc2Sc2ccccc21 (centres unmarked) | 2.2%
CC1(C)S[C@@H]2[C@H](NC(=O)[C@H](N)c3ccccc3)C(=O)N2[C@H]1C(=O)O | 75.9% and 96.8%
O=C(c1ccc(F)cc1)C1CCN(CCn2c(=O)[nH]c3ccccc3c2=O)CC1 | 76.5%
NC(=O)c1ccccc1O | 106%
